Experimental data from different studies.
Every numbered part comes from another study and shows a few of its results, in no order.

Study 1
Target: Interferon regulatory factor 3, full length, phosphomimetic (IRF3, Homo sapiens, UniProt Q14653, residues 1-427, S386D/S396D/S398D/S402D/T404D/S405D)
Sequence of UniProt Q14653 (whole entry, unmodified, looked up): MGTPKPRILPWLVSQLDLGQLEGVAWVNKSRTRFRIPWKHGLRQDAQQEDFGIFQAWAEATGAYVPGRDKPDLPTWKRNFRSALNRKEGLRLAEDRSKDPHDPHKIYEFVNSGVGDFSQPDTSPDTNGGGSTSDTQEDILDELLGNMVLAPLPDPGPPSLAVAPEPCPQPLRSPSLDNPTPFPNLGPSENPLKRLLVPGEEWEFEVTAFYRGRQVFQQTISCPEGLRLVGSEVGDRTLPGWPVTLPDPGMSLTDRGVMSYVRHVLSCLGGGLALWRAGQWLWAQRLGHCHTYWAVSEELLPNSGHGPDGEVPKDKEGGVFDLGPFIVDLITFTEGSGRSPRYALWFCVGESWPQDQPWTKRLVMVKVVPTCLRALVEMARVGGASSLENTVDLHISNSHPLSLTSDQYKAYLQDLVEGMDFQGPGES
Technique: protein-binding microarray
Form: double-stranded DNA, one strand shown
Sample: in vitro
Tested at: 2540 nM top
Setting: 60-bp whole probe
Added: salmon DNA 0.4 mg/ml
Baseline: random background probes
Reading: higher = stronger binding
Constant ends, left off below: GCCTAGCAC … GTCTTGATTCGCTTGACGCTGCTG
Sequence	fitted relative affinity [z-score]
TTAGGTTGCGGTTTCGGTTAGTGCTAG	8.25
GACCGTCTCGGACTGGGGACGTGCTAG	0.751
GATTATAAAATGTGTGTTTGGTGCTAG	0.00491
TTAGGACTGGGTTTCGGTAAGTGCTAG	2.16
AACGAACTGAGTCTCGAGACGTGCTAG	-0.217
GACGATTTCGGGTATCGAGTCGTGCTA	2.05
TTAGGTATCGGGACTGGGTGAGTGCTA	1.23
TTAGATATCAGTTTCAATTAGTGCTAG	2.74

Study 2
Target: TAR DNA-binding protein 43, full length, His tag (TARDBP, Homo sapiens, UniProt Q13148, residues 1-414)
Technique: RNA Bind-n-Seq
Form: RNA
Sample: in vitro
Tested at: 20 nM
Setting: 6-mer, flanks averaged, single round
Added: 150 mM KCl
Baseline: input library
Reading: higher = stronger binding
Sequence	6-mer enrichment (R)
UCAAUG	0.665
GUGGUC	1.27
UGUGCU	0.847
UCGCUU	0.579
CCGAUA	0.613
AGAUUG	0.761
CCAAGC	0.717
AUUUAC	0.595
CGCCGU	0.766

Study 3
Target: RNA binding protein fox-1 homolog 2, RRM domain, GST-SBP tag (RBFOX2, Homo sapiens, UniProt O43251-10, residues 100-194)
Technique: RNA Bind-n-Seq
Form: RNA
Sample: in vitro
Tested at: 365 nM
Setting: natural RNA segment, single round, ends assumed
Baseline: no-protein control
Reading: higher = stronger binding
Constant ends, left off below: GGGAGUUCUACAGUCCGACGAUC … UGGAAUUCUCGGGUGCCAA
Construct (chain): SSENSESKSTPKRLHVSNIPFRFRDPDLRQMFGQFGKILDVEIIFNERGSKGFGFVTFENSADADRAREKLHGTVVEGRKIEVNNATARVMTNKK
Sequence	RBNS enrichment (R)
GGGAAAAAACUAAAAAGGUUUUUUACAUUUUUAAAAGGAAGACAUUCGUGACUGAGACCAUACGUGGCCUAUAAACCUAGCAUUUGGAGAAAGUUUGCUGACUUUUGUAA	0.594
AUGUUCCCAAGGCCCCACUUUCAAGAAUCAGACAGCAGGAAGCCAUAGAUGCUGGCUGGGUUCCAGGUUAUGGGGAGAAGAAAUACAGUCAAUAAAAGGUUUUUGUAUAA	0.617
ACAGUAGACCAGUUGCUCUUUGCUUCAGGUCCCUUUGAUGGAGUCUGUCAUCAGCCAGUGCUAACACCGGGCCAAUAAGAAUAUAACACCAAAUAACUGCUGGCUAGUUG	0.214
GGAAAAUGAACCUCAGCCCAUUAGGCAGGAAAAGUUGAUAUUUAAUAAACAAGGAAAGAGUGAACUGGACCCCAAAUGGUACUCUUGUCAGCUGUUUCUGUCCUCAGAAG	0.336
UGCAGCUAACCAAGGACUCCUGUGUUUCUAUAAGCUAAUGCUCCAGAAACUUUGCCAACCUGUUAGUGUACACACACUGAGGGGAGUGCUCCCGGUGAAUAUUAUCAUAG	0.355
GCCAGGCAGUAUAUCCAGUUAGAACUUCCGGCUUUUGCAUUAGCUUGUCUGAUGCUCAUGCCCCACUCAGAGAAAAGACACCAGCAAAUUAAGGAUUUUCUGGGUUCCUG	0.335
CAUGAGUACAUUAAAAAUAAUUUAAUAGCCACAAUAUGAUGUUCUUUAAGCUGCAAAUUGAGUACACUGGGAAUCAACAAAUUUGAUGAAGCCUGUCUGUCUCUUCACCA	0.499
AGUUGGUUCUGAGGACAGAUGAUCCCCACAGACUGUGGGAGUGAUUGGCCAGGCCUUGUUUUUUCUUGUGUUUUGUUCUUUUUGUAGACUAGUGUGGUAACUAGGGAACA	1.09

Mixed results
Molecule	target	assay	test system	setting	scale	endpoint	result
PhoQ, residues 284 288 289 292 302 303 GANMMA	PhoP, residues 12 14 15 18 19 AGCRL (Escherichia coli, UniProt P23836)	Sort-seq, measured: YFP reporter	E. coli	PhoQ-PhoP variant library, added: 10 µM Mg2+	baseline: high Mg2+ state, higher = stronger signaling	fold induction	6.37

Repeated from above (study 3):
Sequence	RBNS enrichment (R)
GCCAGGCAGUAUAUCCAGUUAGAACUUCCGGCUUUUGCAUUAGCUUGUCUGAUGCUCAUGCCCCACUCAGAGAAAAGACACCAGCAAAUUAAGGAUUUUCUGGGUUCCUG	0.335
CAUGAGUACAUUAAAAAUAAUUUAAUAGCCACAAUAUGAUGUUCUUUAAGCUGCAAAUUGAGUACACUGGGAAUCAACAAAUUUGAUGAAGCCUGUCUGUCUCUUCACCA	0.499
